Measurements collected from several papers.
Protocols differ between the studies behind these lines.
CTSL: Procathepsin L (CTSL, Homo sapiens, UniProt P07711)
Sequence of UniProt P07711 (whole entry, looked up): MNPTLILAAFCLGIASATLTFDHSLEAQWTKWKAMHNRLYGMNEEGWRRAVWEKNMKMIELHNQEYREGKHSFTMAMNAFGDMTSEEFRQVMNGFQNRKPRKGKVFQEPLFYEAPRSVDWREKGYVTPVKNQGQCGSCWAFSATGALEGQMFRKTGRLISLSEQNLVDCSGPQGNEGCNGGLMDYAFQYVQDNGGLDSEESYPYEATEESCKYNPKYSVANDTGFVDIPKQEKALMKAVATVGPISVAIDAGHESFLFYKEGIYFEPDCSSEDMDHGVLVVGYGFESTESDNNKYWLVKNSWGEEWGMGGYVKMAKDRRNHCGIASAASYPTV
DRD3: D(3) dopamine receptor (DRD3, Homo sapiens, UniProt P35462)
Sequence of UniProt P35462 (whole entry, looked up): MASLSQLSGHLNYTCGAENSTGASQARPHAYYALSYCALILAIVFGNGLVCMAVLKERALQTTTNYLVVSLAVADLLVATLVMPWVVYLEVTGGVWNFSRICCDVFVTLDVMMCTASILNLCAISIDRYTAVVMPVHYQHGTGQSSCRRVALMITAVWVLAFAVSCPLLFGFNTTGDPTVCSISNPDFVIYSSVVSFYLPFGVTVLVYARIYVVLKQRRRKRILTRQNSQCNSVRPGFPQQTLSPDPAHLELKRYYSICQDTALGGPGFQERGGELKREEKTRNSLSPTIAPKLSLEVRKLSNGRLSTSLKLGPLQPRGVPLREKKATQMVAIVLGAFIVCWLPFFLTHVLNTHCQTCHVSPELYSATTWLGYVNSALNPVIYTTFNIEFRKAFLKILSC
Sequence of UniProt P61075 (whole entry, looked up): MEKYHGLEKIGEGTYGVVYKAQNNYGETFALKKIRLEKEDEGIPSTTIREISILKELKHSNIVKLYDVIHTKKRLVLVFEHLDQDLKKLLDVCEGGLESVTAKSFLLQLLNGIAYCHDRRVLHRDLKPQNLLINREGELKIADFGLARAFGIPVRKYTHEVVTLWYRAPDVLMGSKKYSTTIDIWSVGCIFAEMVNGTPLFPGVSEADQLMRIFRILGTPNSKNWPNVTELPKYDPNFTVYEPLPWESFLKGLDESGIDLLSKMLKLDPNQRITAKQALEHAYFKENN
Sequence of UniProt Q9NWZ3 (whole entry, looked up): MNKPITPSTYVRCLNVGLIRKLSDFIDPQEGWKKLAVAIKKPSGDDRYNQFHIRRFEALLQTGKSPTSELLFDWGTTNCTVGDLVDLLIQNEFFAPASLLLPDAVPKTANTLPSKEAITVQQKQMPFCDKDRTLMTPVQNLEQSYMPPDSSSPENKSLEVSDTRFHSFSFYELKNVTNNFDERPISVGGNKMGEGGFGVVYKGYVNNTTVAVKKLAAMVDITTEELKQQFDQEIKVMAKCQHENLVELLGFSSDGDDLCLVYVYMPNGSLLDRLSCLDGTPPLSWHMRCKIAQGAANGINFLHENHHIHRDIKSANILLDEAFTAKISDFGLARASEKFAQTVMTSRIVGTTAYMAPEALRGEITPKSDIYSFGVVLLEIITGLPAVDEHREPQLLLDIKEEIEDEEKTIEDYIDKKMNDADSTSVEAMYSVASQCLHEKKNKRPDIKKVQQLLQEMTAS
Sequence of UniProt Q9UEE5 (whole entry, looked up): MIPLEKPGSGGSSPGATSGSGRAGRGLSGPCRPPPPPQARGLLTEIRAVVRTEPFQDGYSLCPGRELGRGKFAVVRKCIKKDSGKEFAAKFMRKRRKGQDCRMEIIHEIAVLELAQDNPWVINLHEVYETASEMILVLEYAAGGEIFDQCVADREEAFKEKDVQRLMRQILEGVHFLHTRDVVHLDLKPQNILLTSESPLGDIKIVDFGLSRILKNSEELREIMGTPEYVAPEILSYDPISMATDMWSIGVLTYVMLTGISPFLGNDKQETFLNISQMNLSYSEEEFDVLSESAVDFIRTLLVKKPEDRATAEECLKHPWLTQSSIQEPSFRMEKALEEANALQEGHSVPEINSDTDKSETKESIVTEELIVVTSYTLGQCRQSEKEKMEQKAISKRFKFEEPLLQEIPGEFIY
Sequence of UniProt Q15831 (whole entry, looked up): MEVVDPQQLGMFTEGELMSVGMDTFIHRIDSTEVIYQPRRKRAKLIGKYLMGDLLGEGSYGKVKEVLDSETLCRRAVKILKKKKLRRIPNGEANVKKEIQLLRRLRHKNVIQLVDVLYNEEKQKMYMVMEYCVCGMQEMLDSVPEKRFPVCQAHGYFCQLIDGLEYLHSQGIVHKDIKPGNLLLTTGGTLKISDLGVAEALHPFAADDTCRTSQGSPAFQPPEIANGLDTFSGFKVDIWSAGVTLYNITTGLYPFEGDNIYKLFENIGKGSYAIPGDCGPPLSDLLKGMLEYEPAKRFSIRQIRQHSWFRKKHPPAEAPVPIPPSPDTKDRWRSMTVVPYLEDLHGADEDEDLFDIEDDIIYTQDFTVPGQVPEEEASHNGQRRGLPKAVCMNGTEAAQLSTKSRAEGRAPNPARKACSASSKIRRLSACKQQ
Sequence of UniProt Q00535 (whole entry, looked up): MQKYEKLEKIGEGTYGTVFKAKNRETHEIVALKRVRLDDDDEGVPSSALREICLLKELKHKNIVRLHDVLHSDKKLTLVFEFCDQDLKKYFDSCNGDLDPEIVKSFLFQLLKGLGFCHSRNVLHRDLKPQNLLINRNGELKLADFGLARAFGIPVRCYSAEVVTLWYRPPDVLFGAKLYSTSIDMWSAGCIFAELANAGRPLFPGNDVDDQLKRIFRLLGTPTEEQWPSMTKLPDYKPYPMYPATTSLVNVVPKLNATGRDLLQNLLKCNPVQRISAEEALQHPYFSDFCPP
Sequence of UniProt P53667 (whole entry, looked up): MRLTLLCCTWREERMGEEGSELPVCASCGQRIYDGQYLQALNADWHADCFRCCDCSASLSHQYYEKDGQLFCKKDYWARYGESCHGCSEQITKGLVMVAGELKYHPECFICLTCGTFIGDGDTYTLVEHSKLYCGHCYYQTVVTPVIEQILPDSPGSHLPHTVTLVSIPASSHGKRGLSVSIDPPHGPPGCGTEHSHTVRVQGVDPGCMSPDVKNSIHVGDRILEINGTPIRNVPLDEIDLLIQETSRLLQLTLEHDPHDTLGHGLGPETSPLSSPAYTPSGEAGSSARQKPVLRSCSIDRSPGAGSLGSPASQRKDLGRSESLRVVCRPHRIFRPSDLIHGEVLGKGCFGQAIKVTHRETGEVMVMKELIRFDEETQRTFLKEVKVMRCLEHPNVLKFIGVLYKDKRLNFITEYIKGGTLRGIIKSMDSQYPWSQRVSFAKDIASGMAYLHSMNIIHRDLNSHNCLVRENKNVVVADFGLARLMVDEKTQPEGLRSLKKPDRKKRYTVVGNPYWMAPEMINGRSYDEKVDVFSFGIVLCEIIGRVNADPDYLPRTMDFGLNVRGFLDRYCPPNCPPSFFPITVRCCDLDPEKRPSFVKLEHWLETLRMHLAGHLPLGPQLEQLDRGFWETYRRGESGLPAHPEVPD
Sequence of UniProt P49841 (whole entry, looked up): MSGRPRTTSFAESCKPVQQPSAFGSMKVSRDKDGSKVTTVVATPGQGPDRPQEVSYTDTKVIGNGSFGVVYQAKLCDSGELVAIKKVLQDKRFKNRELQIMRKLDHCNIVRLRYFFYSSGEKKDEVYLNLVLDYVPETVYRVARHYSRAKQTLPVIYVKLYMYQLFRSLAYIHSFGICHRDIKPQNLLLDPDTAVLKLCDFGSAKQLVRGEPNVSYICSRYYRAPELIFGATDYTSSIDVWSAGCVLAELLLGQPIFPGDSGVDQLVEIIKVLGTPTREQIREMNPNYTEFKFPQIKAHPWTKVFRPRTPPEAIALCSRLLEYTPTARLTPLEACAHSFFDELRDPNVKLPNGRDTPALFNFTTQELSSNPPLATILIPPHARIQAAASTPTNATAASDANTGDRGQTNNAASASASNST
Sequence of UniProt P53671 (whole entry, looked up): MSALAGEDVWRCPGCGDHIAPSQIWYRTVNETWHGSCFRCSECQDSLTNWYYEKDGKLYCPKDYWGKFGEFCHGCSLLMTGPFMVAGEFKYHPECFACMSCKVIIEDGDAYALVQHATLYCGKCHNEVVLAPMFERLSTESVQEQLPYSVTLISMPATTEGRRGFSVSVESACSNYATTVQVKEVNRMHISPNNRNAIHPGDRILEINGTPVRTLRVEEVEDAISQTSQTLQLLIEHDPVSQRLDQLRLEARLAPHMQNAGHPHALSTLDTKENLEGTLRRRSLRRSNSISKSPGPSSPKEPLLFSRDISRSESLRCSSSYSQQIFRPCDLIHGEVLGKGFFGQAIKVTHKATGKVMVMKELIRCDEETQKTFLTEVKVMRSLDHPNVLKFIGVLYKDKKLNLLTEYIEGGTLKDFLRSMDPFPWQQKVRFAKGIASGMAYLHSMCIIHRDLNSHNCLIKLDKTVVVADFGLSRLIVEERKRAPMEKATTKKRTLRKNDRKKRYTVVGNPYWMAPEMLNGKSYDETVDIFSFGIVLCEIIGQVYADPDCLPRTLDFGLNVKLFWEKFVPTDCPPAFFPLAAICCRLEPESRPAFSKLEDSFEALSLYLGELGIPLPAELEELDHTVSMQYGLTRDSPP
Sequence of UniProt Q969F8 (whole entry, unmodified, looked up): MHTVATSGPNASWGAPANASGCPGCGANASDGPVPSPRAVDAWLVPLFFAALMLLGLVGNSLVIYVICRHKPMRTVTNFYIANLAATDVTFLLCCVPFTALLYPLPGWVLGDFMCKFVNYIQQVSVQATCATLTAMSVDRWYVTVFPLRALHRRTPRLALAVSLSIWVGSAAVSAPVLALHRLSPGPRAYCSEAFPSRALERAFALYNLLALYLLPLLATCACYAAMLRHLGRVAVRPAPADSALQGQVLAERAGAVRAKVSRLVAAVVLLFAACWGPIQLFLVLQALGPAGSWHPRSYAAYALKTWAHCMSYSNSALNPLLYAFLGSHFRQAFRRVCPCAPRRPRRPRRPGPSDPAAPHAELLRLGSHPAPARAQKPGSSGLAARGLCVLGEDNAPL

SMILES	target or system	assay	test system	conditions	measurement	result
Oc1cc2c(cc1O)C1c3ccc(O)c(O)c3OCC1(O)C2 (stereo not drawn)	CTSL	enzyme activity, inhibitor		100 µM	remaining activity	90.6%
CC(=NNC(=O)c1ccccc1Cl)c1ccc(Nc2nnc(-c3ccc(Cl)cc3)c3ccccc23)cc1	MCF7	cell growth or viability, MTT		2.5 µM	cell death	77%
O=C(O)CC(O)(CC(=O)OCc1ccc(OC2OC(CO)C(O)C(O)C2O)cc1)C(=O)OCc1ccc(OC2OC(CO)C(O)C(O)C2O)cc1 (stereo not drawn)	CTSL	enzyme activity, inhibitor		100 µM	remaining activity	85.6%
C1=C/COCc2cc(ccc2OCCN2CCCC2)Nc2nccc(n2)-c2cccc(c2)COC/1	ABL1 (Homo sapiens, UniProt P00519, M351T)	binding		0.1 µM	remaining binding	19%
CCCCC(=O)Nc1ccc(-c2ccc3ncn(CCC)c(=O)c3c2)cn1	LIM domain kinase 2 (LIMK2, Homo sapiens, UniProt P53671)	binding, competition with immobilised ligand		0.5 µM	remaining binding	100%
CC[C@H](C)[C@H](NC(=O)[C@H](CCC(N)=O)NC(=O)[C@H](CCCNC(=N)N)NC(=O)[C@H](CO)NC(=O)[C@H](Cc1c[nH]cn1)NC(=O)[C@@H]1CCCN1C(=O)[C@H](C)NC(=O)[C@H](CO)NC(=O)[C@H](CC(C)C)NC(=O)CNC(=O)[C@@H]1CCCN1C(=O)[C@H](CCC(N)=O)NC(=O)[C@H](CCC(N)=O)NC(=O)[C@H](CCCNC(=N)N)NC(=O)[C@H](CO)NC(=O)CNC(=O)[C@H](CO)NC(=O)[C@H](CO)NC(=O)[C@H](CCC(=O)O)NC(=O)[C@@H]1CCCN1C(=O)[C@@H]1CCCN1C(=O)[C@@H]1CCCN1C(=O)[C@H](CO)NC(=O)[C@H](CC(C)C)NC(=O)[C@H](CO)NC(=O)[C@@H](NC(=O)CN)[C@@H](C)O)C(=O)N1CCC[C@H]1C(=O)N[C@@H](C)C(=O)N1CCC[C@H]1C(=O)N[C@@H](CCC(N)=O)C(=O)NCC(=O)N[C@@H](C)C(=O)N[C@H](C(=O)N[C@@H](CC(C)C)C(=O)N[C@H](C(=O)N[C@@H](CCC(N)=O)C(=O)N[C@@H](CCCNC(=N)N)C(=O)N[C@@H](CCC(=O)O)C(=O)N[C@@H](CCCCN)C(=O)N[C@@H](CC(=O)O)C(=O)N[C@@H](CC(C)C)C(=O)N1CCC[C@H]1C(=O)N[C@@H](CC(N)=O)C(=O)N[C@@H](Cc1ccc(O)cc1)C(=O)N[C@@H](CC(N)=O)C(=O)N[C@@H](Cc1c[nH]c2ccccc12)C(=O)N[C@@H](CC(N)=O)C(=O)N[C@@H](CO)C(=O)N[C@@H](Cc1ccccc1)C(=O)NCC(=O)N[C@@H](CC(C)C)C(=O)N[C@@H](CCCNC(=N)N)C(=O)N[C@@H](Cc1ccccc1)C(N)=O)C(C)C)C(C)C	KiSS-1 receptor (KISS1R, Homo sapiens, UniProt Q969F8, H309A)	inositol phosphate, agonist	HEK293		Emax	51.1%
CNc1ncc2c(/C=C/C(=O)N3CCC(OC)CC3)nn(Cc3cccc(C(F)(F)F)c3)c2n1	STK17A (Homo sapiens, UniProt Q9UEE5)	enzyme activity, inhibitor, radiometric		1 µM	remaining activity	103%
CC[C@H](C)[C@H](NC(=O)[C@H](CCC(N)=O)NC(=O)[C@@H](NC(=O)[C@H](CCSC)NC(=O)[C@H](CCCCN)NC(=O)[C@H](CO)NC(=O)[C@@H](NC(=O)[C@H](CCSC)NC(=O)[C@H](CC(C)C)NC(=O)[C@H](CC(N)=O)NC(=O)[C@@H](NC(=O)[C@@H](NC(=O)[C@H](CO)NC(=O)[C@H](CC(C)C)NC(=O)[C@H](C)NC(=O)[C@H](CCCNC(=N)N)NC(=O)[C@H](CCC(=O)O)NC(=O)[C@H](Cc1ccc(O)cc1)NC(=O)[C@H](Cc1ccccc1)NC(=O)[C@H](C)NC(=O)[C@H](CC(N)=O)NC(=O)[C@@H](N)CCCCN)[C@@H](C)CC)[C@@H](C)CC)[C@@H](C)O)C(C)C)C(=O)N[C@@H](CC(N)=O)C(=O)N[C@H](C(=O)O)C(C)C	Cyclin-dependent kinase 5, with p35 (CDK5, Homo sapiens, UniProt Q00535)	enzyme activity, inhibitor, radiometric		10 µM, 20 min	remaining activity	86%
COc1c(/C=C/C(=O)c2ccc(O)cc2)ccc(O)c1CC=C(C)C	CTSL	enzyme activity, inhibitor		100 µM	remaining activity	79.2%
Cc1cc([C@@H](C)Nc2ccccc2C(=O)O)c2nc(N3CCC(F)(F)CC3)c(C#N)c(=O)n2c1	STK11 (Homo sapiens, UniProt Q15831)	binding, competition with immobilised ligand		10 µM	remaining binding	100%
OC[C@@H](O)[C@@H](O)[C@H](O)[C@H](O)CO	USP51 (Homo sapiens, UniProt Q70EK9)	enzyme activity, inhibitor		5 µM	inhibition	65%
OCCc1c[nH]c2ccccc12	CTSL	enzyme activity, inhibitor		100 µM	remaining activity	102%
Cc1[nH]c(C)c(S(=O)(=O)Nc2ccc(C3CC3)c(Cl)c2)c1C(=O)N1CCC(F)(F)C1	DRD3	β-arrestin recruitment, agonist		90 min	Emax	103%
COc1cc(-c2cncc3c2CN(C)Cc2cc(N4CCNCC4)ccc2-3)cc(OC)c1OC	IRAK4 (Homo sapiens, UniProt Q9NWZ3)	enzyme activity, inhibitor		1 µM	remaining activity	97%
Nc1ncnc2occ(-c3ccc(NC(=O)Nc4cc(C(F)(F)F)ccc4F)cc3)c12	Tyrosine-protein kinase ABL1, non-phosphorylated (ABL1, Homo sapiens, UniProt P00519, H396P)	cell-free assay, inhibitor		20 µM	remaining signal	0%
CN(C)c1nccc(-c2cnn3ncccc23)n1	CRK2 (Plasmodium falciparum, UniProt P61075)	cell-free assay		1 µM	remaining signal	100%
O=C(c1ccc(F)cc1)C1CCN(CCn2c(=O)[nH]c3ccccc3c2=O)CC1		metabolic stability, mass spectrometry	mouse, liver microsomes	30 min	compound remaining	32.9%
CC(=O)/C=C/c1c[nH]c2ccccc12	CTSL	enzyme activity, inhibitor		100 µM	remaining activity	71.5%
COc1cc(OC)cc(-c2cc(C(C)=O)n3ccccc23)c1	BRD9 (Homo sapiens, UniProt Q9H8M2)	thermal stability, DSF		200 µM	ΔTm	6.5 to 7.3 °C
CC[C@H](C)[C@H](NC(=O)[C@H](CCC(N)=O)NC(=O)[C@H](CC(C)C)NC(=O)[C@H](CCSC)NC(=O)[C@H](CCCCN)NC(=O)[C@H](CO)NC(=O)[C@H](CO)NC(=O)[C@H](CCSC)NC(=O)[C@H](CC(C)C)NC(=O)[C@H](CC(N)=O)NC(=O)[C@@H](NC(=O)[C@@H](NC(=O)[C@H](CO)NC(=O)[C@H](CC(C)C)NC(=O)[C@H](CS)NC(=O)[C@H](CCCNC(=N)N)NC(=O)[C@H](CC(=O)O)NC(=O)[C@H](Cc1c[nH]c2ccccc12)NC(=O)[C@H](Cc1ccccc1)NC(=O)[C@H](C)NC(=O)[C@H](CCC(=O)O)NC(=O)[C@@H](N)CCCCN)C(C)C)[C@@H](C)CC)C(=O)N[C@@H](CC(N)=O)C(=O)N[C@@H](C)C(=O)O	GSK3B (Homo sapiens, UniProt P49841)	enzyme activity, inhibitor, radiometric		500 µM	inhibition	-24%
O=C(C=Cc1ccccc1)Nc1ccc(Oc2nnc(-c3ccc(Cl)cc3)c3ccccc23)cc1	MCF7	cell growth or viability, MTT		5 µM, 24 h	viability	8.37%
Cc1cc(O)c2c(c1)C(=O)c1cc(O)cc(O)c1C2=O	CTSL	enzyme activity, inhibitor		100 µM	remaining activity	33%
Cc1ccc(N(O)N=Nc2ccc(S(=O)(=O)Nc3onc(C)c3C)cc2)cc1		ABTS scavenging		120 µg/mL	inhibition	70.1%
Cc1[nH]c(C)c(S(=O)(=O)Nc2ccc(C(F)(F)F)c(Cl)c2)c1C(=O)N(C)C	DRD3	β-arrestin recruitment, agonist		90 min	Emax	103%
C=CC(=O)N1CCC(COCC(=O)N2CCN(c3nc(-c4cnc(N)nc4C(F)F)nc(N4CCOC[C@@H]4C)n3)CC2)CC1	LIM domain kinase 1 (LIMK1, Homo sapiens, UniProt P53667)	binding, competition with immobilised ligand		1 µM	remaining binding	98%
O=C(/C=C/c1ccc(O)cc1)c1c(O)cc(O)cc1O	CTSL	enzyme activity, inhibitor		100 µM	remaining activity	5.8%
CCN(O)N=Nc1ccc(S(=O)(=O)Nc2onc(C)c2C)cc1		ABTS scavenging		120 µg/mL	inhibition	39.1%

Excerpt of the above:
SMILES	target or system	assay	test system	conditions	measurement	result
Nc1ncnc2occ(-c3ccc(NC(=O)Nc4cc(C(F)(F)F)ccc4F)cc3)c12	Tyrosine-protein kinase ABL1, non-phosphorylated (ABL1, Homo sapiens, UniProt P00519, H396P)	cell-free assay, inhibitor		20 µM	remaining signal	0%
CN(C)c1nccc(-c2cnn3ncccc23)n1	CRK2 (Plasmodium falciparum, UniProt P61075)	cell-free assay		1 µM	remaining signal	100%
O=C(c1ccc(F)cc1)C1CCN(CCn2c(=O)[nH]c3ccccc3c2=O)CC1		metabolic stability, mass spectrometry	mouse, liver microsomes	30 min	compound remaining	32.9%
